Results from different studies.
Several values in a cell are separate wells, animals, samples, runs or records. ± gives the spread as reported.
GLP1R: Glucagon-like peptide 1 receptor (GLP1R, Homo sapiens, UniProt P43220)
UniProt Q8IWT6, sequence (whole entry, unmodified, looked up): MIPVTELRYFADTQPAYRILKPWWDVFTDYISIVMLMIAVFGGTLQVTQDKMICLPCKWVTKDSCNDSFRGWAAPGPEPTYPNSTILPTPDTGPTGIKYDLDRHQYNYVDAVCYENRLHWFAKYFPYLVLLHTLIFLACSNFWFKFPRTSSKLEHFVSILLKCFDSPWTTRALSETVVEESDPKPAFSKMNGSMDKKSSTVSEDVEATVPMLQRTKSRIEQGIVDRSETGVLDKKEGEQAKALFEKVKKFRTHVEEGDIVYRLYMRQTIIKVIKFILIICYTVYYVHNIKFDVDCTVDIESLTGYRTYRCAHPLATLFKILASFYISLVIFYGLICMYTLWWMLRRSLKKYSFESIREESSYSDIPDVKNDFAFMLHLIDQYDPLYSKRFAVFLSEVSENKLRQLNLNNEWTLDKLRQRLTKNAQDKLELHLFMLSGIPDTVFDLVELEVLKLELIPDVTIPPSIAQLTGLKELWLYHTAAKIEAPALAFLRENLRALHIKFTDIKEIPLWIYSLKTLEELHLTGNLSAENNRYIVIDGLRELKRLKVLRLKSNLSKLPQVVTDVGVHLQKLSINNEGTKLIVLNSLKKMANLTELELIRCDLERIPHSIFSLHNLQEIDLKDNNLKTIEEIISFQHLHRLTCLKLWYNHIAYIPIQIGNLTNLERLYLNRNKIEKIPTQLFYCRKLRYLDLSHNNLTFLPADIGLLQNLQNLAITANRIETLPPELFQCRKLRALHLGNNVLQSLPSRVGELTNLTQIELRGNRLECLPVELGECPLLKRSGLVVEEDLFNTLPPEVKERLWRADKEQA
UniProt P04629, sequence (whole entry, unmodified, looked up): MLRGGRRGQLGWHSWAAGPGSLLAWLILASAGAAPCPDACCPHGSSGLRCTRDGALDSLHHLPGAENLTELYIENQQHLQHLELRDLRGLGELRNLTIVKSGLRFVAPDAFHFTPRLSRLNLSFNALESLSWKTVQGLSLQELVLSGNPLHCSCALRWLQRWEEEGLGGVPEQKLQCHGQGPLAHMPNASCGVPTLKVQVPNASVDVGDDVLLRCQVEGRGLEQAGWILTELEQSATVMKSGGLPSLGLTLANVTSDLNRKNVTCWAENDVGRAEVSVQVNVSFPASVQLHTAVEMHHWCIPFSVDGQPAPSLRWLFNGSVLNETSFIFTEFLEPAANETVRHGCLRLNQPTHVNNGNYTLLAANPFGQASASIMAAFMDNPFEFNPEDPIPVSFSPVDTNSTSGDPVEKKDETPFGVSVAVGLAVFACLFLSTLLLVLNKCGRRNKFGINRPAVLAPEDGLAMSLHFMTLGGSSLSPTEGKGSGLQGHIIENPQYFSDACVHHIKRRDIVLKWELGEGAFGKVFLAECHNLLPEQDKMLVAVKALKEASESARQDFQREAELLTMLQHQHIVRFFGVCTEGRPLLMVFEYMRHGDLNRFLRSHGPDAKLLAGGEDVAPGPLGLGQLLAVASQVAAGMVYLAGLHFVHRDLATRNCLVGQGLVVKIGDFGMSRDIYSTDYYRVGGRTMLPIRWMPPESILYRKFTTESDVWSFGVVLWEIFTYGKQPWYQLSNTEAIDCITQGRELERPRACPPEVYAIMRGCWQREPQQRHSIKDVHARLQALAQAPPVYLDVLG
UniProt Q16774, sequence (whole entry, unmodified, looked up): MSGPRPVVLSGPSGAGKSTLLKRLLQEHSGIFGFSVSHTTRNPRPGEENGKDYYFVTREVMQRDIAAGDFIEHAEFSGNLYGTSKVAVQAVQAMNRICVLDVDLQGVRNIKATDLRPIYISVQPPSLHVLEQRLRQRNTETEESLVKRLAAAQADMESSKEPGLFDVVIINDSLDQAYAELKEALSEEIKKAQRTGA
UniProt P11388, sequence (whole entry, looked up): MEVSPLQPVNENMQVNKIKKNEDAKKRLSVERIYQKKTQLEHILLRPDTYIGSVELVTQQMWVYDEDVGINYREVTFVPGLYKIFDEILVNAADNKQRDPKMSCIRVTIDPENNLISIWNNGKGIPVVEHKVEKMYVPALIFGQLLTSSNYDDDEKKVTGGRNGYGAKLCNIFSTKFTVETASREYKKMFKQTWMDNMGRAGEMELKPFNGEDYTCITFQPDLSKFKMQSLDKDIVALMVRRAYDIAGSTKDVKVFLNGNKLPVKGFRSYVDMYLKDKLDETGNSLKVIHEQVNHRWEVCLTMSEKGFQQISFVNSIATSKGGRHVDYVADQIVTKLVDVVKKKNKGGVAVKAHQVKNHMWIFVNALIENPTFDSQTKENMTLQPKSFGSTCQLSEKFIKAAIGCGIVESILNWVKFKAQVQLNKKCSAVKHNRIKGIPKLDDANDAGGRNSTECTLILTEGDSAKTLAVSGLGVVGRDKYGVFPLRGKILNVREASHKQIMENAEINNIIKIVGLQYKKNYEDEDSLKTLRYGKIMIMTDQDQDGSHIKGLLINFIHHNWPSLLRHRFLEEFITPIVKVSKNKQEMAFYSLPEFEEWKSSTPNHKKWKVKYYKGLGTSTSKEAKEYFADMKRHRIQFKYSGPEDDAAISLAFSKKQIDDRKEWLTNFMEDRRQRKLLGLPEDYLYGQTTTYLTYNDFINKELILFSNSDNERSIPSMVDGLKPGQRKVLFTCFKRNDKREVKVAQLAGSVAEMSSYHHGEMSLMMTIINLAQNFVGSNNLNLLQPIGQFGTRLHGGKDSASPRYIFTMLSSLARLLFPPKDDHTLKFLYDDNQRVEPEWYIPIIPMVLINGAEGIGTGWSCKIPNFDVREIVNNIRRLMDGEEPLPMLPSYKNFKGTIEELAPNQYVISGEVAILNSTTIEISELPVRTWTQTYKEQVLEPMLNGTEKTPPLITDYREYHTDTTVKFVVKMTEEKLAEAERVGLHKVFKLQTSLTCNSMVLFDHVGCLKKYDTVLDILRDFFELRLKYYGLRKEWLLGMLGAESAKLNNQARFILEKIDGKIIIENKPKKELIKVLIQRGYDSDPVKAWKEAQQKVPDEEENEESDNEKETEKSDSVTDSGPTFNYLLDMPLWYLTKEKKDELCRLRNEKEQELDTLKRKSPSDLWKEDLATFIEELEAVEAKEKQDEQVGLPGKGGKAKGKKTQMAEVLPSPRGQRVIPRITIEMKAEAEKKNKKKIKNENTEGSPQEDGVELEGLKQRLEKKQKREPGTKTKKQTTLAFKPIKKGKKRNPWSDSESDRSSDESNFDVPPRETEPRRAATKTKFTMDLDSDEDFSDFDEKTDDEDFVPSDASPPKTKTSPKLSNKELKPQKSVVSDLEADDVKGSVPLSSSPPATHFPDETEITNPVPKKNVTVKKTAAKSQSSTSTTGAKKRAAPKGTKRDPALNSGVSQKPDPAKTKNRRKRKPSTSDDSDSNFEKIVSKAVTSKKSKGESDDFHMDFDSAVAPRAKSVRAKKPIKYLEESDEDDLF
UniProt P14618, sequence (whole entry, looked up): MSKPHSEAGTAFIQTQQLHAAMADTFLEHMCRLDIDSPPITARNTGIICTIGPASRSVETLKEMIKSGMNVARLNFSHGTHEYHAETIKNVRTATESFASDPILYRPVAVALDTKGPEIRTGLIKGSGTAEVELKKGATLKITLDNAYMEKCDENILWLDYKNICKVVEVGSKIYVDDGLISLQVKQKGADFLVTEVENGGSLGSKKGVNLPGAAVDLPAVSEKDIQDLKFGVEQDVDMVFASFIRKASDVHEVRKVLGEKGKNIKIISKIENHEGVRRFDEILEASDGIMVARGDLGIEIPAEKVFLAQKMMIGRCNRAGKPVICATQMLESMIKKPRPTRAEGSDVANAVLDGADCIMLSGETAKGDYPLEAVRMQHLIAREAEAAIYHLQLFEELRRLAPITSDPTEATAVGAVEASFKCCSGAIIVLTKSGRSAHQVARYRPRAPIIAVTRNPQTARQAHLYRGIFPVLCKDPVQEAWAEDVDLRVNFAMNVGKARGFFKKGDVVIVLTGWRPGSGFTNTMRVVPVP
UniProt P34995, sequence (whole entry, unmodified, looked up): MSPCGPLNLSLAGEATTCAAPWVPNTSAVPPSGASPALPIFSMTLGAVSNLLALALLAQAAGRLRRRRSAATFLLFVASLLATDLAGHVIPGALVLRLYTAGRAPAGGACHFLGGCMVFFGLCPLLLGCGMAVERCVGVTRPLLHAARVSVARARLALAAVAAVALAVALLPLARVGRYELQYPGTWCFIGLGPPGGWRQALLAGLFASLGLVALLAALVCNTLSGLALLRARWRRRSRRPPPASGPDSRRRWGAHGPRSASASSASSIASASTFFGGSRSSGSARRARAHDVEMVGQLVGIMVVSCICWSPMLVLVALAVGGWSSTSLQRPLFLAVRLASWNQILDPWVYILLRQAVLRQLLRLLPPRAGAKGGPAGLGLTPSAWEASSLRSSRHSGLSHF
UniProt P05164, sequence (whole entry, looked up): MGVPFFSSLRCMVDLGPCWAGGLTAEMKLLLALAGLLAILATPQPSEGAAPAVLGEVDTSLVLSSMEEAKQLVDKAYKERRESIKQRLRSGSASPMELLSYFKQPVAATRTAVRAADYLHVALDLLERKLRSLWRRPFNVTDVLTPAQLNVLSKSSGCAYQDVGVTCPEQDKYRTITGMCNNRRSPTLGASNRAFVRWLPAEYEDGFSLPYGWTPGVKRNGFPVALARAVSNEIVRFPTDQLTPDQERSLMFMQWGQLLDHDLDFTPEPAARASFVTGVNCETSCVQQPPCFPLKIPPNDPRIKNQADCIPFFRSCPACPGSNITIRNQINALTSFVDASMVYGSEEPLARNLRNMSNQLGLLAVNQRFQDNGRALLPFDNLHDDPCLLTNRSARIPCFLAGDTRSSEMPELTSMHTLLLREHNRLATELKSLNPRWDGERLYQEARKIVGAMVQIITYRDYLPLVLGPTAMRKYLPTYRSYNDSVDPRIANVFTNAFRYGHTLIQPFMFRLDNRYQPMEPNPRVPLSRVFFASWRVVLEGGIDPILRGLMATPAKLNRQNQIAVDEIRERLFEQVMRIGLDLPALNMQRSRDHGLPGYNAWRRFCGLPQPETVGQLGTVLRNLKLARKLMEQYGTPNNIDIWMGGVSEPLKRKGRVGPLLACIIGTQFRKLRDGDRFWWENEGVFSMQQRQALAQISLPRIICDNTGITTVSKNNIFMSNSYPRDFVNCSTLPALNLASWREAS

O=C(COP(=O)(O)O)[C@@H](O)[C@H](O)[C@H](O)COP(=O)(O)O  minimum concentration, maximal activation (Pyruvate kinase PKM (PKM, Homo sapiens, UniProt P14618); pyruvate kinase activity, activator; RKO cell lysate; without AIM): 273 ± 129 nM
Nc1ncnc2c1ncn2[C@@H]1O[C@H](COP(=O)(O)OP(=O)(O)O)[C@@H](O)[C@H]1O  ΔH (GUK1 (Homo sapiens, UniProt Q16774); ITC; molar ratio 0.9041): -1.57 kcal/mol
O=C(Nc1cccc2c(=O)cc(-c3nnn[nH]3)oc12)c1ccc(OCCCCc2ccccc2)cc1  inhibition (LRRC8A/LRRC8C (Homo sapiens, UniProt Q8IWT6+Q8TDW0, M48D/T48D); ion current, whole-cell patch clamp; HCT LRRC8-/- cells; 0.1 µM, +100 mV, T48D/M48D heteromers): 3.73% and 1.34% and -5.75%
O=c1nc(SCc2ccc(C(F)(F)F)cc2)nc(SCc2csc3ccc(Cl)cc23)[nH]1  relaxed DNA (TOP2A (Homo sapiens, UniProt P11388); DNA relaxation; 31.25 µM, replicate 1): 0%
CCCCC[C@H](O)/C=C/[C@H]1[C@H](O)CC(=O)[C@@H]1C/C=C\CCCC(=O)O  Emax (PTGER1 (Homo sapiens, UniProt P34995, P39A); IP1 accumulation, agonist; AD293; 1 h, EP1 P39A mutant): 110 ± 3.13%
O=C(O)c1ccc(Nc2ncc3c(n2)-c2ccc(Cl)cc2C(c2c(F)cccc2F)=NC3)cc1  remaining activity (BRK(h); kinase activity; 1 µM): 104%
CSc1ccc(C(=O)/C=C/c2cc(C)c(OC(C)(C)C(=O)O)c(C)c2)cc1  Emax (Ppara (Mus musculus, UniProt P23204); receptor activation, agonist; species mouse; relative to: internal control agonist): 73%
NCC[C@H](O)C(=O)N[C@@H]1C[C@H](N)[C@@H](O[C@H]2O[C@H](CN)[C@@H](O)[C@H](O)[C@H]2O)[C@H](O)[C@H]1O[C@H]1O[C@H](CO)[C@@H](O)[C@H](N)[C@H]1O  Stern-Volmer quenching constant (Albumin (ALB, Bos taurus, UniProt P02769); tryptophan fluorescence quenching; 10 to 60 µM, 298 K): 1.99 10³ M⁻¹
CC[C@H](C)[C@H](NC(=O)[C@H](Cc1ccccc1)NC(=O)[C@H](CCC(=O)O)NC(=O)[C@H](CCCNC(=N)N)NC(=O)[C@H](C)NC(=O)[C@H](C)NC(=O)[C@H](CCC(N)=O)NC(=O)[C@H](CCC(=O)O)NC(=O)[C@H](CCC(=O)O)NC(=O)[C@H](CC(C)C)NC(=O)[C@H](Cc1ccc(O)cc1)NC(=O)[C@H](CO)NC(=O)[C@H](CO)NC(=O)[C@@H](NC(=O)[C@H](CC(=O)O)NC(=O)[C@H](CO)NC(=O)[C@@H](NC(=O)[C@H](Cc1ccccc1)NC(=O)[C@@H](NC(=O)CNC(=O)[C@H](CCC(=O)O)NC(=O)[C@H](C)NC(=O)CCc1cnc[nH]1)[C@@H](C)O)[C@@H](C)O)C(C)C)C(=O)N[C@@H](C)C(=O)N[C@@H](Cc1c[nH]c2ccccc12)C(=O)N[C@@H](CC(C)C)C(=O)N[C@H](C(=O)N[C@@H](CCCNC(=N)N)C(=O)NCC(=O)N[C@@H](CCCNC(=N)N)C(=O)N[C@@H](CCCCNC(=O)COCCOCCNC(=O)COCCOCCNC(=O)CC[C@H](NC(=O)CCCCCCCCCCCCCCCCC(=O)O)C(=O)O)C(=O)NCC(=O)NCC(=O)N[C@@H](CO)C(=O)N[C@@H](CCCCNc1c(NCCCCCN(O)C(=O)CCC(=O)NCCCCCN(O)C(=O)CCC(=O)NCCCCCN(O)C(C)=O)c(=O)c1=O)C(=O)N[C@@H](CCCCNc1c(NCCCCCN(O)C(=O)CCC(=O)NCCCCCN(O)C(=O)CCC(=O)NCCCCCN(O)C(C)=O)c(=O)c1=O)C(=O)O)C(C)C  fold potency loss (GLP1R; agonist, CRE luciferase reporter; BHK cells; Zr-loaded DFO conjugate, together with: 0% HSA; relative to: parent peptide): 3.6
O=C(O)CC[C@H](NC(=O)N[C@@H](CCCCNC(=O)CCCCCCC(=O)NCCCC[C@@H](NC(=O)[C@H](CCC(=O)O)NC(=O)[C@H](CCC(=O)O)NC(=O)CCC(=O)NCCCN1CC[S][Tc]2(=[O])[S]CC[N]2CC1)C(=O)O)C(=O)O)C(=O)O (some centres unmarked) [technetium-99m labelled]  Bmax (FOLH1 (Homo sapiens, UniProt Q04609); saturation binding; LNCaP; 1 h, 37 °C): 12 ± 0.3 pmol/mg
CC(C)C[C@@H]1NC(=O)CNC(=O)[C@H](CC(C)C)NC(=O)[C@@H]2CCCN2C(=O)[C@H](CC(=O)O)NC(=O)[C@H](Cc2ccc(O)cc2)NC(=O)CNC(=O)[C@@H](Cc2ccc(O)cc2)NC(=O)CSC[C@@H](C(N)=O)NC(=O)[C@H](C)NC(=O)[C@H](Cc2ccccc2)NC(=O)[C@H](Cc2ccc(O)cc2)NC(=O)[C@H](CCCCN)NC1=O  -TΔS (Vacuolar protein sorting-associated protein 29 (VPS29, Homo sapiens, UniProt Q9UBQ0); binding, ITC; 25 °C, protein alone): 6.4 ± 1.2 kcal/mol
CC[C@@H]1[C@H](F)C(=O)N[C@@H]1COc1nccc2cc(C(N)=O)c(OC)cc12  inhibition (SGK3 (Homo sapiens, UniProt Q96BR1); ATP-site probe binding, ActivX profiling; THP-1 cell lysate; 0.2 mM, Lys2 site): 7.4%
N#Cc1ccc2[nH]cc(CCCCN3CCN(c4ccc5oc(C(N)=O)cc5c4)CC3)c2c1  Hill coefficient (SLC6A4 (Homo sapiens, UniProt P31645, N177V); [3H]5-HT uptake, inhibitor; COS-7): 0.98 ± 0.08
CC[C@H](C)[C@H](NC(=O)[C@H](Cc1ccccc1)NC(=O)[C@H](CCC(=O)O)NC(=O)[C@H](CCCNC(=N)N)NC(=O)[C@H](C)NC(=O)[C@H](C)NC(=O)[C@H](CCC(N)=O)NC(=O)[C@H](CCC(=O)O)NC(=O)[C@H](CCC(=O)O)NC(=O)[C@H](CC(C)C)NC(=O)[C@H](Cc1ccc(O)cc1)NC(=O)[C@H](CO)NC(=O)[C@H](CO)NC(=O)[C@@H](NC(=O)[C@H](CC(=O)O)NC(=O)[C@H](CO)NC(=O)[C@@H](NC(=O)[C@H](Cc1ccccc1)NC(=O)[C@@H](NC(=O)CNC(=O)[C@H](CCC(=O)O)NC(=O)[C@H](C)NC(=O)CCc1cnc[nH]1)[C@@H](C)O)[C@@H](C)O)C(C)C)C(=O)N[C@@H](C)C(=O)N[C@@H](Cc1c[nH]c2ccccc12)C(=O)N[C@@H](CC(C)C)C(=O)N[C@H](C(=O)N[C@@H](CCCNC(=N)N)C(=O)NCC(=O)N[C@@H](CCCNC(=N)N)C(=O)N[C@@H](CCCCNC(=O)COCCOCCNC(=O)COCCOCCNC(=O)CC[C@H](NC(=O)CCCCCCCCCCCCCCCCC(=O)O)C(=O)O)C(=O)NCC(=O)NCC(=O)N[C@@H](CO)C(=O)N[C@@H](CCCCNC(=O)[C@H](CCCCNc1c(NCCCCCN(O)C(=O)CCC(=O)NCCCCCN(O)C(=O)CCC(=O)NCCCCCN(O)C(C)=O)c(=O)c1=O)Nc1c(NCCCCCN(O)C(=O)CCC(=O)NCCCCCN(O)C(=O)CCC(=O)NCCCCCN(O)C(C)=O)c(=O)c1=O)C(=O)O)C(C)C  fold potency loss (GLP1R; agonist, CRE luciferase reporter; BHK cells; metal-free DFO conjugate, together with: 0% HSA; relative to: parent peptide): 2.9
C[C@@H]1C[C@H]2[C@@H]3CCC4=CC(=O)C=C[C@]4(C)[C@@]3(F)[C@@H](O)C[C@]2(C)[C@@]1(O)C(=O)CO  Hill coefficient (NR3C1 (Homo sapiens, UniProt P04150); agonist, radioligand binding): 1
C#Cc1cc(-c2cc(Nc3nc(N[C@@H](C)c4ccc(F)cn4)ncc3Cl)n[nH]2)ccc1C=O  inhibition (NTRK1 (Homo sapiens, UniProt P04629, G667A); enzyme activity, inhibitor; 0.2 µM): 101%
Nc1nc2c(ncn2[C@@H]2O[C@@H]3COP(=O)(O)O[C@H]4[C@@H](O)[C@H](n5cnc6c(=O)[nH]c(N)nc65)O[C@@H]4COP(=O)(O)O[C@H]3[C@H]2O)c(=O)[nH]1  ΔH (Cell cycle histidine kinase CckA, DHp-CA domains (Caulobacter vibrioides, UniProt Q9X688); ITC; together with: AMPPNP 5 mM): 1.03 ± 0.0433 kcal/mol
CC(C)OCCn1c(=S)[nH]c(=O)c2[nH]ccc21  H2O2 concentration (Myeloperoxidase (MPO, Homo sapiens, UniProt P05164); H2O2 consumption, inhibitor, H2O2 electrode; 10 µM, 0.1 s): -1.34 µM
CC(=O)N[C@H]1[C@H]([C@H](O)[C@H](O)CO)O[C@@](OC[C@H]2O[C@@H](Oc3ccc([N+](=O)[O-])cc3)[C@H](O)[C@@H](O)[C@H]2O)(C(=O)O)C[C@@H]1O  Vmax (Sialidase-2 (Homo sapiens, UniProt Q9Y3R4); substrate; 10 min, pH 5.0, 37 °C): 0.0012 ± 0.0001 mM/s
O=C(COP(=O)(O)O)[C@@H](O)[C@H](O)[C@H](O)COP(=O)(O)O  thermal stability ratio (Actin, alpha skeletal muscle (ACTA1, Homo sapiens, UniProt P68133); thermal proteome profiling, refers to: ACTA1; HepG2 cell lysate; concentration not given, 57 over 37 °C; relative to: compound over control): 0.857 and 0.476 and 0.583

Some of these lines once more:
CC[C@H](C)[C@H](NC(=O)[C@H](Cc1ccccc1)NC(=O)[C@H](CCC(=O)O)NC(=O)[C@H](CCCNC(=N)N)NC(=O)[C@H](C)NC(=O)[C@H](C)NC(=O)[C@H](CCC(N)=O)NC(=O)[C@H](CCC(=O)O)NC(=O)[C@H](CCC(=O)O)NC(=O)[C@H](CC(C)C)NC(=O)[C@H](Cc1ccc(O)cc1)NC(=O)[C@H](CO)NC(=O)[C@H](CO)NC(=O)[C@@H](NC(=O)[C@H](CC(=O)O)NC(=O)[C@H](CO)NC(=O)[C@@H](NC(=O)[C@H](Cc1ccccc1)NC(=O)[C@@H](NC(=O)CNC(=O)[C@H](CCC(=O)O)NC(=O)[C@H](C)NC(=O)CCc1cnc[nH]1)[C@@H](C)O)[C@@H](C)O)C(C)C)C(=O)N[C@@H](C)C(=O)N[C@@H](Cc1c[nH]c2ccccc12)C(=O)N[C@@H](CC(C)C)C(=O)N[C@H](C(=O)N[C@@H](CCCNC(=N)N)C(=O)NCC(=O)N[C@@H](CCCNC(=N)N)C(=O)N[C@@H](CCCCNC(=O)COCCOCCNC(=O)COCCOCCNC(=O)CC[C@H](NC(=O)CCCCCCCCCCCCCCCCC(=O)O)C(=O)O)C(=O)NCC(=O)NCC(=O)N[C@@H](CO)C(=O)N[C@@H](CCCCNC(=O)[C@H](CCCCNc1c(NCCCCCN(O)C(=O)CCC(=O)NCCCCCN(O)C(=O)CCC(=O)NCCCCCN(O)C(C)=O)c(=O)c1=O)Nc1c(NCCCCCN(O)C(=O)CCC(=O)NCCCCCN(O)C(=O)CCC(=O)NCCCCCN(O)C(C)=O)c(=O)c1=O)C(=O)O)C(C)C  fold potency loss (GLP1R; agonist, CRE luciferase reporter; BHK cells; metal-free DFO conjugate, together with: 0% HSA; relative to: parent peptide): 2.9
N#Cc1ccc2[nH]cc(CCCCN3CCN(c4ccc5oc(C(N)=O)cc5c4)CC3)c2c1  Hill coefficient (SLC6A4 (Homo sapiens, UniProt P31645, N177V); [3H]5-HT uptake, inhibitor; COS-7): 0.98 ± 0.08
